Measurements collected from several papers.
Numbered parts are unrelated; each lists some results of a single study. Positions count from the first letter of the parent shown.

Sample 1
Target: Sal-like protein 4, full length isoform B (SALL4, Homo sapiens, UniProt Q9UJQ4-2, residues 1-616)
Method: universal PBM
Form: double-stranded DNA, one strand shown
Sample: in vitro
Tested at: not given
Notes: 8-mer, flanks averaged, mean of replicates
Reading: higher = stronger binding
Strand	E-score
GAACCTTC	-0.0555
CCACAACG	-0.109
ACAGACTG	-0.0504
ACGCATTG	0.0166
AATTTTCA	0.316
ACCTGAGC	-0.143

Sample 2
Target: ABI1, truncated, D143A, DHFR fusion (Arabidopsis thaliana)
Method: DHFR PCA, deep sequencing
Sample: yeast
Notes: methotrexate growth selection, single substitutions
With: (+)-ABA 0.032 µM
Relative to: wild-type fitted maximum
Reading: higher = stronger binding
Starting sequence: PYL1, truncated, DHFR fusion (Arabidopsis thaliana); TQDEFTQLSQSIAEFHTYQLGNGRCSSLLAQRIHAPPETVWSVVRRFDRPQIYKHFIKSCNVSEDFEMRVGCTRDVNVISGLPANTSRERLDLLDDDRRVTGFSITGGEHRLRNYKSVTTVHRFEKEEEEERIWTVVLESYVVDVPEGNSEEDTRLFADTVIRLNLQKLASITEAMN
Variant	relative binding score [%]
E125V	38.8
Y115W	-1.29
S11L	4.48
C60S	-0.00322
F103K	-3.82
S171K	43.4

Sample 3
Target: CCNA2, cyclin fold, Cln2 fusion (human)
Method: yeast growth competition, sequencing
Sample: yeast
Notes: weak parent motif
Relative to: not given
Reading: higher = stronger binding
Starting sequence: MASTL docking peptide (human); PMIAKNLMCELDE
Variant	normalised enrichment score
K5G	-0.608
M2L	0.0666
L11D	-0.761
I3F	-0.343
M8I	-0.207
C9L	-0.143
L7R	0.155
D12F	0.605
D12L	0.137

Single results of other studies
Molecule	target	test	system	conditions	scale	quantity	result
PhoQ, residues 284 288 289 292 302 303 SSTMSV	PhoP, residues 12 14 15 18 19 LYFRQ (Escherichia coli, UniProt P23836)	Sort-seq, measured: YFP reporter	E. coli	PhoQ-PhoP variant library, with: 10 µM Mg2+	relative to: high Mg2+ state, higher = stronger signaling	fold induction	13.7

Repeated from above (sample 3):
Variant	normalised enrichment score
M8I	-0.207
C9L	-0.143
L7R	0.155
